Experimental data from different studies.
A part holds a random share of what one study measured.
Sequence of UniProt P10721 (whole entry, unmodified, looked up): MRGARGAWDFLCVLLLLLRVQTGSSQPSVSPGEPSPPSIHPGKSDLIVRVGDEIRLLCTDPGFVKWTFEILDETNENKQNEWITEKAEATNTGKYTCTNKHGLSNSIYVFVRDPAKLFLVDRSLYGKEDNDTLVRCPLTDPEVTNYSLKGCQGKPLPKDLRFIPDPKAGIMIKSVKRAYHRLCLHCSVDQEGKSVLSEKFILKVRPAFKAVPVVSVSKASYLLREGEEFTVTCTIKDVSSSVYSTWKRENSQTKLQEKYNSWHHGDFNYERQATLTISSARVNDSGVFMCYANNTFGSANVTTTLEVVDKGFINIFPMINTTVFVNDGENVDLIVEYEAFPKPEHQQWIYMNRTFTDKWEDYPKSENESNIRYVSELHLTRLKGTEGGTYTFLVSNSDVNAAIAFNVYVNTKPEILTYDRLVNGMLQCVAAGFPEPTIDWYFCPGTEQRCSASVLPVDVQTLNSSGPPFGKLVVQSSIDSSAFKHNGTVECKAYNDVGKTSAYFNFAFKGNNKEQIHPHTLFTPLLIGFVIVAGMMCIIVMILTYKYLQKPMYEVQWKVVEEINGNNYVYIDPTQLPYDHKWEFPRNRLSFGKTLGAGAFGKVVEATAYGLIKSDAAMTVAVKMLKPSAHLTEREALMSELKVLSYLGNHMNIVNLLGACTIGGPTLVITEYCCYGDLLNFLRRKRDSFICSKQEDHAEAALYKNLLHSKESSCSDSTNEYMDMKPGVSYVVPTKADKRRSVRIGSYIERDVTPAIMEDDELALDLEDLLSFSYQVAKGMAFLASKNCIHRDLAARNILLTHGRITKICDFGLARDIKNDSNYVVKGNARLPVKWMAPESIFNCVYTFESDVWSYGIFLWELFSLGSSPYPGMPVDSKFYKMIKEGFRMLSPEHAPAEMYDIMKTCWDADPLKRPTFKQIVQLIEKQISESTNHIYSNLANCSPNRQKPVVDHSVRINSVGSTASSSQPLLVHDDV
Sequence of UniProt P50750 (whole entry, looked up): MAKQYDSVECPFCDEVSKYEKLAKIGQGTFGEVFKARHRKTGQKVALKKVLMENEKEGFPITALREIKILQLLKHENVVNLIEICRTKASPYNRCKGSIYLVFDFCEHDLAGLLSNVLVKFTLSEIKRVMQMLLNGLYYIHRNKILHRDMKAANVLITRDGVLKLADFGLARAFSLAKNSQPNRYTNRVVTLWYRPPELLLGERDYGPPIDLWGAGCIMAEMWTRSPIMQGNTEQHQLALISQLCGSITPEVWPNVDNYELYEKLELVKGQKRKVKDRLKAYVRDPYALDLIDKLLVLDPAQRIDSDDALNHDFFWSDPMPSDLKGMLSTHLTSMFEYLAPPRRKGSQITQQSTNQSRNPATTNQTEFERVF
Sequence of UniProt P28482 (whole entry, looked up): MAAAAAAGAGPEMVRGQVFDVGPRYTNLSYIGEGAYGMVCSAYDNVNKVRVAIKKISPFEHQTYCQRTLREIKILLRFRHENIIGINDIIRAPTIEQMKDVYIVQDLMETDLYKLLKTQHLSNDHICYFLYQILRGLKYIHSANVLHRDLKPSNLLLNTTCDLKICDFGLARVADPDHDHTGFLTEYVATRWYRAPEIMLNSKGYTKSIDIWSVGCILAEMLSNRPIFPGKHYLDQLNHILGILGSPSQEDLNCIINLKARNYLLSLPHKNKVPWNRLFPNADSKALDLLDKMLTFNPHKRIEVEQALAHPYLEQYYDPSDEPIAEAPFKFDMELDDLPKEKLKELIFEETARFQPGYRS
Sequence of UniProt Q32MK0 (whole entry, looked up): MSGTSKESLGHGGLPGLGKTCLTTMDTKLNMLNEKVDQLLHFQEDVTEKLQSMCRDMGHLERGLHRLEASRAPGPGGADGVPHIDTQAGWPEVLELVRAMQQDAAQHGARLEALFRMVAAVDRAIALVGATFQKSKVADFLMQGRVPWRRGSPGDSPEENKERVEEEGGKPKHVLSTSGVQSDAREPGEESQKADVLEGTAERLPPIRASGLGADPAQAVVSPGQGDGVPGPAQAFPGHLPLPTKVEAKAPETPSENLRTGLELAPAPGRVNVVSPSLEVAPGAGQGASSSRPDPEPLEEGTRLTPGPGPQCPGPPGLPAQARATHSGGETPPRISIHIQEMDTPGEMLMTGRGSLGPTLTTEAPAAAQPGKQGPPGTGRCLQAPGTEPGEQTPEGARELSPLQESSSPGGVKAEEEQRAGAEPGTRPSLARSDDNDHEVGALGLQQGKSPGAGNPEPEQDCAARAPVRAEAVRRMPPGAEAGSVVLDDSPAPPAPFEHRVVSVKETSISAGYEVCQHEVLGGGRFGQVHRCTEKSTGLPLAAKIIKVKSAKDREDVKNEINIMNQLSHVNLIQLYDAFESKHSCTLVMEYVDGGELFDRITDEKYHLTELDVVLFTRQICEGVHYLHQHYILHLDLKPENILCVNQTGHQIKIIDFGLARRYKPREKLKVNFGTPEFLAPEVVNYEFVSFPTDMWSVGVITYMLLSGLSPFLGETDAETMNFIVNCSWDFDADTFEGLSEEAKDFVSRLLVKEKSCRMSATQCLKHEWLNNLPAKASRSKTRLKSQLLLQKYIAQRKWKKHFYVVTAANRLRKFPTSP
Sequence of UniProt P51957 (whole entry, looked up): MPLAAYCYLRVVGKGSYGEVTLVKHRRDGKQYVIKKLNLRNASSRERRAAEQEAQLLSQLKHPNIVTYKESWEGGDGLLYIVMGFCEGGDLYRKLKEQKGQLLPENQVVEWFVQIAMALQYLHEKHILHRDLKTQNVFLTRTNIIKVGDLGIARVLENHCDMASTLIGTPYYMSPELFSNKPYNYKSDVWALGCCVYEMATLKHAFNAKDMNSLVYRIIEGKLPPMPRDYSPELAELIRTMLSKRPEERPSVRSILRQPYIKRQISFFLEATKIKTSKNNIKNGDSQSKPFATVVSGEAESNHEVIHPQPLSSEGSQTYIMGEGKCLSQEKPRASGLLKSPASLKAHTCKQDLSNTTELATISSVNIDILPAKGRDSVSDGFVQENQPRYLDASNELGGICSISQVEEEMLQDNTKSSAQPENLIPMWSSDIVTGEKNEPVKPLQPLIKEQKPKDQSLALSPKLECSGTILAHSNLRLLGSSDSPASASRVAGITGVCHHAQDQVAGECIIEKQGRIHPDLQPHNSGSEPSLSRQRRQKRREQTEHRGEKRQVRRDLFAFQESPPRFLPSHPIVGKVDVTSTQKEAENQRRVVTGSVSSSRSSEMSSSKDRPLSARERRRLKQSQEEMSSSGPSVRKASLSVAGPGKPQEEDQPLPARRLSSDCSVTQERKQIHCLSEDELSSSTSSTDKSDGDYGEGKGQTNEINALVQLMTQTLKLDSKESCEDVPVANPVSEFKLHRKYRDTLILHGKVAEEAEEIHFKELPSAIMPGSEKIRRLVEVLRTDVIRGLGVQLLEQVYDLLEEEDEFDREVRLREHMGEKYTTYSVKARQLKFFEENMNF
Sequence of UniProt Q8NI60 (whole entry, looked up): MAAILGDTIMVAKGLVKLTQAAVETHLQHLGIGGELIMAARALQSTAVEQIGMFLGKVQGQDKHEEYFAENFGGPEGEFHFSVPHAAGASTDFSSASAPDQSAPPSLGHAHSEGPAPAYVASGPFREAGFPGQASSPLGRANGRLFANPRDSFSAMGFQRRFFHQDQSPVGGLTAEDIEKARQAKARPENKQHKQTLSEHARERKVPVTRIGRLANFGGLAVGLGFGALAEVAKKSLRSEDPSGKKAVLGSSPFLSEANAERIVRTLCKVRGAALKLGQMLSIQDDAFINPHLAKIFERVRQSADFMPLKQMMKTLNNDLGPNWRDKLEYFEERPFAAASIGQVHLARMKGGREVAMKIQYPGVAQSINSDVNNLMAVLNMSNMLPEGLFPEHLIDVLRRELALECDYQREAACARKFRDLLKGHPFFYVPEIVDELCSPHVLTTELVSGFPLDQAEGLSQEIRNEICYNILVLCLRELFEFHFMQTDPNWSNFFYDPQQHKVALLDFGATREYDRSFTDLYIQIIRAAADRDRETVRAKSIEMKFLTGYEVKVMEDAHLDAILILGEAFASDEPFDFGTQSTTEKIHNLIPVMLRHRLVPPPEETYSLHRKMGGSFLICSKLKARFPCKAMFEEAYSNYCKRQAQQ
Sequence of UniProt Q13976 (whole entry, looked up): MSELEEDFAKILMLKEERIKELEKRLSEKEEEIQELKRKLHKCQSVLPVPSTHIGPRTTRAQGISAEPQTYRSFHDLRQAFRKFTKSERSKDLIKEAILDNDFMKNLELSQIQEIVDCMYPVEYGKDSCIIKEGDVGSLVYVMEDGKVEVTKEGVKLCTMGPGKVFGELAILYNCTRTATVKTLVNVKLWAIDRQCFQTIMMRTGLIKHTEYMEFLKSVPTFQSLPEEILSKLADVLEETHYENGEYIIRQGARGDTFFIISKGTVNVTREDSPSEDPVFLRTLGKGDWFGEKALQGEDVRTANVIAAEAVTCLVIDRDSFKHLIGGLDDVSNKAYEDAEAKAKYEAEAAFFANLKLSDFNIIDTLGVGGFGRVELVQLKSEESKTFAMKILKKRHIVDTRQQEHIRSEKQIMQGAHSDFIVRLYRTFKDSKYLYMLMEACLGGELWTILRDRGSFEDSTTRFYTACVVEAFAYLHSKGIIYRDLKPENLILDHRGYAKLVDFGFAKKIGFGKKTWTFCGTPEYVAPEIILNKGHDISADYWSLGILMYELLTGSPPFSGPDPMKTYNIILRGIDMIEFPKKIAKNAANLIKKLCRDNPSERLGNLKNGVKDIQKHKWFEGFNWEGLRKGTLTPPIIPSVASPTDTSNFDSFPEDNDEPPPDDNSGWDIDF
Sequence of UniProt O15264 (whole entry, looked up): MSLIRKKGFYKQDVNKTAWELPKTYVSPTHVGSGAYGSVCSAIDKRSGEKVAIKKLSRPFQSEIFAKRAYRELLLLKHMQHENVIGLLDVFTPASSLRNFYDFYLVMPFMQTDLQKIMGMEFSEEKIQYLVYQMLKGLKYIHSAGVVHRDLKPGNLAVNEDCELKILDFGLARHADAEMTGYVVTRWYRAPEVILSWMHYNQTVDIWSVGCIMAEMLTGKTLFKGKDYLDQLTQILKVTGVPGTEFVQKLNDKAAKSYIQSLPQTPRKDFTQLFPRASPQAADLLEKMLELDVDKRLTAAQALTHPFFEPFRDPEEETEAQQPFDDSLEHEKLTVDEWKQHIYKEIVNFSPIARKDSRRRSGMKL

Study 1
Compound: CCC(=N\O)/C(C)=C/c1ccc(F)cc1
Observed: cell-free assay
Method: competition with immobilised ligand
Tested at: 1 µM
For CAMK2G (Homo sapiens, UniProt Q13555): remaining binding read 100%.
For MYLK3 (Homo sapiens, UniProt Q32MK0): remaining binding read 86%.
For SLK (Homo sapiens, UniProt Q9H2G2): remaining binding read 91%.
The remaining binding was 100% (FRK (Homo sapiens, UniProt P42685)).
It gave 79% for remaining binding (GRK1 (Homo sapiens, UniProt Q15835)).
It gave 88% for remaining binding (NTRK3 (Homo sapiens, UniProt Q16288)).
The remaining binding was 80% (Mast/stem cell growth factor receptor Kit, autoinhibited (KIT, Homo sapiens, UniProt P10721)).
HIPK4 (Homo sapiens, UniProt Q8NE63) — remaining binding: 79%.
The remaining binding was 100% (BRSK2 (Homo sapiens, UniProt Q8IWQ3)).
The remaining binding was 100% (KIT (Homo sapiens, UniProt P10721, V559D)).
For PIK3CA (Homo sapiens, UniProt P42336, I800L): remaining binding read 100%.
For Tyrosine-protein kinase ABL1, phosphorylated (ABL1, Homo sapiens, UniProt P00519, H396P): remaining binding read 72%.
For PIK3C2G (Homo sapiens, UniProt O75747): remaining binding read 75%.
PRKCQ (Homo sapiens, UniProt Q04759) — remaining binding: 80%.
The remaining binding was 64% (TRPM6 (Homo sapiens, UniProt Q9BX84)).
MAP3K12 (Homo sapiens, UniProt Q12852) — remaining binding: 76%.
For MAPK1 (Homo sapiens, UniProt P28482): remaining binding read 71%.
For COQ8A (Homo sapiens, UniProt Q8NI60): remaining binding read 78%.
FGFR3 (Homo sapiens, UniProt P22607) — remaining binding: 91%.
For CDKL2 (Homo sapiens, UniProt Q92772): remaining binding read 92%.
It gave 80% for remaining binding (CDKL3 (Homo sapiens, UniProt Q8IVW4)).
It gave 83% for remaining binding (IKBKB (Homo sapiens, UniProt O14920)).
It gave 86% for remaining binding (MAPK8 (Homo sapiens, UniProt P45983)).

Study 2
Compound: Nc1nc(Nc2ccc(S(N)(=O)=O)cc2)nn1C(=O)c1c(F)cccc1F
Observed: enzyme activity
Mode: inhibitor
Tested at: 0.5 µM
Baseline: control
AKT3 (Homo sapiens, UniProt Q9Y243) — remaining activity: 95%.
It gave 58.4% for remaining activity (MAP4K2 (Homo sapiens, UniProt Q12851)).
For WNK2 (Homo sapiens, UniProt Q9Y3S1): remaining activity read 116%.
For MAPK13 (Homo sapiens, UniProt O15264): remaining activity read 94.8%.
For PLK2 (Homo sapiens, UniProt Q9NYY3): remaining activity read 94.2%.
The remaining activity was 77.8% (MAP3K10 (Homo sapiens, UniProt Q02779)).
The remaining activity was 27.6% (Cyclin-dependent kinase 9, with cyclin T1 (CDK9, Homo sapiens, UniProt P50750)).
For NEK4 (Homo sapiens, UniProt P51957): remaining activity read 79.2%.
The remaining activity was 86.1% (PRKG1 (Homo sapiens, UniProt Q13976)).
BTK (Homo sapiens, UniProt Q06187) — remaining activity: 87.1%.
For PRKCD (Homo sapiens, UniProt Q05655): remaining activity read 81.2%.
MAPK12 (Homo sapiens, UniProt P53778) — remaining activity: 89.9%.
For CSNK1A1 (Homo sapiens, UniProt P48729): remaining activity read 95.1%.
The remaining activity was 80.5% (LYN (Homo sapiens, UniProt P07948)).
It gave 151% for remaining activity (IRAK4 (Homo sapiens, UniProt Q9NWZ3)).
For CHEK1 (Homo sapiens, UniProt O14757): remaining activity read 76.3%.
LRRK2 (Homo sapiens, UniProt Q5S007) — remaining activity: 48.3%.
The remaining activity was 92.2% (EPHA5 (Homo sapiens, UniProt P54756)).
The remaining activity was 104% (CSNK2A1 (Homo sapiens, UniProt P68400)).

Study 3
Species: mouse
Sample: microsomes or S9
Tested at: 2 µM
Time: 0.5 h
For COc1cc(OC)c2nc(N3C[C@@H](NC(C)=O)[C@H](C(C)C)C3)cc(C)c2c1, the remaining compound was 84.8%.
Cc1c(C)c(C)c(S(=O)(=O)N(C)c2cnccn2)c(C)c1C gave a remaining compound of 1.17%.
For O=C1C2CC=CCC2C(O)=NN1c1cccc(F)c1 (stereo not drawn), the remaining compound was greater than 99.9%.
With Cc1ccc(S(=O)(=O)N2CCCC(C(=O)Nc3ccc4[nH]c(C5CCCO5)nc4c3)C2)s1 (stereo not drawn) the remaining compound was 31%.
The remaining compound of COc1ccc(C2=NOC(c3ccc(-c4nnn[nH]4)cc3)C2)cc1 (stereo not drawn) is reported as 72.5%.
For CC(C)(C)Nc1ncc(-c2cn[nH]c2)cc1-c1nc2ccccc2o1, the remaining compound was 70.7%.
With COc1ccc([C@@H](C)NC(=O)COc2c(C)ccc(C)c2C)cc1 the remaining compound was 0.73%.
With COc1ccc(OC)c(C(c2c(O)cc(C)n(C)c2=O)c2c(O)cc(C)n(C)c2=O)c1 the remaining compound was 57.8%.
CC(C)c1cc(C(C)C)c(S(=O)(=O)NCc2ccc(S(N)(=O)=O)cc2)c(C(C)C)c1 gave a remaining compound of 1.04%.
Cc1cccc2c(O)c3nc(C)n(-c4ccccc4)c3nc12 has a remaining compound of 55.2%.
The remaining compound of COC[C@@H]1[C@H](NC(=O)CCN2CCCO2)[C@@H]2CCO[C@H]12 is reported as 69.5%.
CCOc1ccc(OCC)c(NC(=O)c2cc3c(Cl)ccc4c3n2CCO4)c1 has a remaining compound of 55.1%.
For Cc1nc2cc(=O)[nH]n2c(C)c1CCC(=O)N[C@H](CO)C(C)C, the remaining compound was 42.4%.

Study 4
SMILES: COc1cc(C(=O)N2CCC(N3CCN(C)CC3)CC2)ccc1Nc1ncc2c(n1)N(C)c1ccccc1C(=O)N2C
PKCe (mouse); probe labelling, KiNativ, refers to: LYS1 site peptide; brain tissue lysate (mouse); 1 µM, added: ADP acyl-phosphate probe — inhibition: 6.5%.
It gave -3.7% for inhibition (human PBMC; probe labeling, inhibitor, KiNativ profiling, refers to: DIkPSNILLDR; cell lysate; 1 µM, LYS2 site, added: ATP acyl-phosphate probe).
MAP3K1 (human); probe labelling, KiNativ ATP probe; human PBMC lysate; concentration not given, LYS2 labelled site — inhibition: 14.5%.
MARK2 (human); probe labelling, KiNativ ADP probe; human PBMC lysate; concentration not given, LYS1 labelled site — inhibition: -1.3%.
The inhibition was -6.7% (CDK5 (mouse); probe labelling, KiNativ, refers to: DLkPQNLLINR peptide, LYS2 site; brain tissue lysate (mouse); 1 µM, added: ATP acyl-phosphate probe).
The inhibition was 10.4% (MAP3K5 and MAP3K6 mouse; KiNativ profiling; mouse brain lysate; 0.1 µM, LYS1 site, added: ADP acyl phosphate probe).
For human PBMC; probe labeling, inhibitor, KiNativ profiling, refers to: YVAVkIHQLNK; cell lysate; concentration not given, LYS1 site, added: ATP acyl-phosphate probe 0.1 µM: inhibition read 7.2%.
It gave 8.7% for inhibition (MAP2K6 (mouse); probe labelling, KiNativ ADP probe; mouse brain lysate; 1 µM, LYS2 labelled site).
It gave -8.7% for inhibition (human PBMC; probe labeling, inhibitor, KiNativ profiling; cell lysate; concentration not given, domain 1, DFG motif site, added: ADP acyl-phosphate probe 1 µM).
The inhibition was 3.4% (BTK (human); probe labelling, KiNativ ATP probe; human PBMC lysate; concentration not given, LYS1 labelled site).
For SLK (mouse); probe labelling, inhibitor, KiNativ ActivX ADP probe; mouse brain lysate; 1 µM, Lys1 site peptide: inhibition read 4.6%.
It gave -4.1% for inhibition (RSK3 domain 1 (mouse); probe labelling, inhibitor, KiNativ ActivX ADP probe; mouse brain lysate; 0.1 µM, activation loop peptide).
For MARK3 and MARK4 (mouse); probe labelling, KiNativ, refers to: EVAIkIIDK peptide, LYS1 site; brain tissue lysate (mouse); 1 µM, added: ADP acyl-phosphate probe: inhibition read -5%.
For BRAF (mouse); probe labelling, KiNativ ADP probe; mouse brain lysate; 0.1 µM, LYS2 labelled site: inhibition read 16.3%.
For CaMKK2 (mouse); probe labelling, KiNativ, refers to: Lys1 site peptide; brain tissue lysate (mouse); 1 µM, added: ATP acyl-phosphate probe: inhibition read 29.8%.
It gave 15.3% for inhibition (mouse CaMK2γ; probe labelling, KiNativ ADP probe; mouse brain lysate; 0.1 µM, LYS1 site TSTQEYAAkIINTK).
For mouse NUAK1; probe labelling, KiNativ ATP probe; mouse brain lysate; 0.1 µM: inhibition read 4.1%.
